Experimental data from different studies.
Protocols differ between the studies behind these lines.
Organism: Escherichia coli

SMILES | test | system | setting | MIC
CC[C@H](C)[C@H](NC(=O)[C@@H](CCCNC(=N)N)NC(=O)[C@H](CCCNC(=N)N)NC(=O)[C@@H](NC(=O)[C@H](Cc1c[nH]c2ccccc12)NC(=O)[C@H](CCCNC(=N)N)NC(=O)[C@@H]1CCCN1C(=O)[C@H](CCCNC(=N)N)NC(=O)[C@@H]1CCCN1C(=O)[C@H](CC(C)C)NC(=O)[C@H](Cc1ccc(O)cc1)NC(=O)[C@@H]1CCCN1C(=O)[C@@H]1CCCN1C(=O)[C@H](CCCCN)NC(=O)[C@H](CC(=O)O)NC(=O)[C@@H](N)C(C)C)C(C)C)C(=O)N[C@@H](Cc1ccc(O)cc1)C(=O)N[C@@H](CC(N)=O)C(=O)N[C@H](CCCNC(=N)N)C(N)=O | broth microdilution | MC4100 | 18 h, 37 °C, 25% MHB2 | 16 µg/mL
CO[C@@H](C(N)=O)[C@H](NC(=O)c1ccc(NC(=O)[C@@H](N)Cc2ccccc2)cc1)C(=O)Nc1ccc(C(=O)Nc2ccc(C(=O)Nc3ccc(C(=O)O)c(O)c3OC(C)C)c(O)c2OC(C)C)cc1 | – | pentapeptide repeat protein clone | 16 h, 37 °C | > 2 µg/mL
CC(C)C[C@H](NC(=O)[C@H](CCCCN)NC(=O)C1CCCC=CCCC(NC(=O)[C@H](CCCCN)NC(=O)[C@@H](N)CC(C)C)C(=O)N[C@@H](CCCCN)C(=O)N[C@@H](CC(C)C)C(=O)N[C@@H](CCCCN)C(=O)N2CCC[C@@H]2C(=O)NCC(=O)N[C@@H](CCCCN)C(=O)N[C@@H](CC(C)C)C(=O)N[C@@H](CCCCN)C(=O)N1)C(N)=O (stereo partly shown) | broth microdilution | ATCC 25922, Mueller-Hinton broth | 18 h, 37 °C | 8 µM
CC(C)C[C@@H](NC(=O)[C@H](NC(=O)[C@@H](CCCCN)NC(=O)[C@@H](CCCCN)NC(=O)[C@@H](CC(C)C)NC(=O)[C@@H](Cc1c[nH]c2ccccc12)NC(=O)[C@@H](CCCCN)NC(=O)[C@@H](CC(C)C)NC(=O)[C@@H](CC(C)C)NC(=O)[C@@H](CCCCN)NC(=O)[C@@H](CCCCN)NC(=O)[C@H](N)C(C)C)C(C)C)C(N)=O | – | – | 24 h, 37 °C, Mueller-Hinton broth, NaCl 150 mM | 8 µM
C#CCO/N=C(\C(=O)N[C@@H]1C(=O)N(OS(=O)(=O)O)C1(C)C)c1nsc(N)n1 | agar dilution | CDC 1001728, NDM-1 | – | 16 µg/mL
N=C(N)NCCC[C@@H]1NC(=O)[C@H](CCCNC(=N)N)NC(=O)[C@H](CCCNC(=N)N)NC(=O)[C@@H](CCCNC(=N)N)NC(=O)[C@H](Cc2ccc3ccccc3c2)NC(=O)[C@H](Cc2ccc3ccccc3c2)NC(=O)[C@H](Cc2ccc3ccccc3c2)NC1=O | – | ATCC BAA-2452, NDM-1 CRE | – | 16 µg/mL
CC[C@H](C)[C@H](NC(=O)[C@@H]1CCCN1C(=O)CNC(=O)[C@H](CC(C)C)NC(=O)[C@H](CCCCN)NC(=O)[C@H](CCCNC(=N)N)NC(=O)[C@H](Cc1c[nH]c2ccccc12)NC(=O)[C@H](C)NC(=O)[C@H](CC(N)=O)NC(=O)[C@H](CCCCN)NC(=O)[C@H](CC(C)C)NC(=O)[C@H](CCCCN)NC(=O)[C@H](CC(N)=O)NC(=O)[C@H](CCCNC(=N)N)NC(=O)[C@H](C)NC(=O)[C@H](CCCNC(=N)N)NC(=O)[C@H](CCCNC(=N)N)NC(=O)[C@H](Cc1ccccc1)NC(=O)[C@H](Cc1c[nH]c2ccccc12)NC(=O)CN)C(=O)N[C@H](C(=O)NCC(=O)N1CCC[C@H]1C(=O)N[C@@H](CC(C)C)C(=O)N[C@@H](CC(C)C)C(=O)N[C@H](C(=O)N[C@@H](CCCNC(=N)N)C(=O)O)[C@@H](C)O)C(C)C | broth microdilution | ATCC 25922, Mueller-Hinton broth | 16 to 20 h, 37 °C | 2.2 µg/mL
CC1(C)[C@H](NC(=O)/C(=N\OC2(C(=O)O)CCCC2)c2csc(N)n2)C(=O)N1OS(=O)(=O)O | agar dilution | 08-85, mcr-1 | – | 0.25 µg/mL
CC(C)C[C@@H](NC(=O)[C@@H](CC(C)C)NC(=O)[C@@H](CCCCN)NC(=O)[C@@H](CCCCNC(=O)[C@@H](CC(C)C)NC(=O)[C@@H](CC(C)C)NC(=O)[C@@H](CCCCNC(=O)[C@@H](CC(C)C)NC(=O)[C@@H](CCCCN)NC(=O)[C@@H](CCCCNC(=O)[C@@H](CC(C)C)NC(=O)[C@H](N)CCCCN)NC(=O)[C@@H](CC(C)C)NC(=O)[C@H](N)CCCCN)NC(=O)[C@@H](CC(C)C)NC(=O)[C@@H](CCCCN)NC(=O)[C@@H](CCCCNC(=O)[C@@H](CC(C)C)NC(=O)[C@H](N)CCCCN)NC(=O)[C@@H](CC(C)C)NC(=O)[C@H](N)CCCCN)NC(=O)[C@@H](CC(C)C)NC(=O)[C@@H](CC(C)C)NC(=O)[C@@H](CCCCNC(=O)[C@@H](CC(C)C)NC(=O)[C@@H](CCCCN)NC(=O)[C@@H](CCCCNC(=O)[C@@H](CC(C)C)NC(=O)[C@H](N)CCCCN)NC(=O)[C@@H](CC(C)C)NC(=O)[C@H](N)CCCCN)NC(=O)[C@@H](CC(C)C)NC(=O)[C@@H](CCCCN)NC(=O)[C@@H](CCCCNC(=O)[C@@H](CC(C)C)NC(=O)[C@H](N)CCCCN)NC(=O)[C@@H](CC(C)C)NC(=O)[C@H](N)CCCCN)C(N)=O | broth microdilution | Citrobacter freundii blaOXA-48 | 20 h, 37 °C | 16 µg/mL
CSCC[C@H](NC=O)C(=O)N[C@@H](CCCNC(=N)N)C(=O)N[C@H](C(=O)NCC(=O)N[C@@H](CC(N)=O)C(=O)N[C@@H](C)C(=O)N[C@@H](CC(N)=O)C(=O)NCC(=O)N1CCN(c2cc3c(cc2F)c(=O)c(C(=O)O)cn3C2CC2)CC1)[C@@H](C)O | broth dilution | K12 MG1655 wild type | – | 5 µM
Cc1ccc2nc(C)c(C(=O)NCc3ccccc3)n2c1 | microbial growth, broth dilution | – | – | > 128 µM
CC[C@H](C)[C@H](NC(=O)[C@H](Cc1c[nH]c2ccccc12)NC(=O)[C@H](CCCNC(=N)N)NC(=O)[C@@H]1CCCN1C(=O)[C@H](CCCNC(=N)N)NC(=O)[C@@H]1CCCN1C(=O)[C@H](CC(C)C)NC(=O)[C@H](Cc1ccc(O)cc1)NC(=O)[C@@H]1CCCN1C(=O)[C@@H]1CCCN1C(=O)[C@H](CCCCN)NC(=O)[C@H](CC(=O)O)NC(=O)[C@@H](N)C(C)C)C(=O)N[C@@H](CCCNC(=N)N)C(=O)N[C@H](CCCNC(=N)N)C(=O)N[C@H](C(=O)N[C@@H](Cc1ccc(O)cc1)C(=O)N[C@@H](CC(N)=O)C(=O)N[C@H](CCCNC(=N)N)C(N)=O)[C@@H](C)CC | broth microdilution | ATCC 25922 | 18 h, 37 °C, 25% MHB2 | 8 µg/mL
CCC(CC)c1cc(C2CN3CCC2CC3CNC)nc(-c2ccncc2)n1 (stereo not shown) | microbial growth, broth dilution | ATCC25922 | – | 64 µg/mL
CC[C@H](C)[C@H](NC(=O)[C@@H](CCCNC(=N)N)NC(=O)[C@H](CCCNC(=N)N)NC(=O)[C@@H]1CCCN1C(=O)[C@@H]1CCCN1C(=O)[C@H](CCCNC(=N)N)NC(=O)[C@@H]1CCCN1C(=O)[C@H](CCCNC(=N)N)NC(=O)[C@@H]1CCCN1C(=O)[C@H](CC(C)C)NC(=O)[C@H](Cc1ccc(O)cc1)NC(=O)[C@@H]1CCCN1C(=O)[C@H](Cc1ccc(O)cc1)NC(=O)[C@H](CCCCN)NC(=O)[C@H](CC(=O)O)NC(=O)[C@@H](N)C(C)C)C(=O)N[C@@H](Cc1ccc(O)cc1)C(=O)N[C@@H](CC(N)=O)C(=O)N[C@H](CCCNC(=N)N)C(N)=O | broth microdilution | ATCC 25922 | 18 h, 37 °C, 25% MHB2 | 16 µg/mL
CC[C@H](C)[C@H](NC(=O)[C@H](Cc1c[nH]c2ccccc12)NC(=O)c1ccccc1)C(=O)N[C@H](C(=O)N[C@@H](Cc1ccc(O)cc1)C(=O)N[C@@H](CCCCN)C(=O)N[C@@H](Cc1c[nH]c2ccccc12)C(=O)N[C@H](CCCNC(=N)N)C(=O)N[C@@H](CCCNC(=N)N)C(=O)N[C@@H](CCCCN)C(=O)N[C@H](C(=O)N[C@H](C(=O)N[C@@H](CCCNC(=N)N)C(=O)N[C@@H](Cc1ccc(O)cc1)C(=O)N[C@@H](Cc1c[nH]c2ccccc12)C(=O)N[C@H](C(=O)NCC(=O)N[C@@H](CCCCN)C(=O)N[C@@H](CCCNC(=N)N)C(N)=O)[C@@H](C)O)C(C)C)C(C)C)C(C)C | – | DH5α | 16 h, 37 °C | > 100 µM
CC[C@H](C)[C@H](NC(=O)[C@@H](CCCNC(=N)N)NC(=O)[C@H](CCCNC(=N)N)NC(=O)[C@@H](NC(=O)[C@H](Cc1c[nH]c2ccccc12)NC(=O)[C@H](CCCNC(=N)N)NC(=O)[C@@H]1CCCN1C(=O)[C@H](CCCNC(=N)N)NC(=O)[C@@H]1CCCN1C(=O)[C@H](CC(C)C)NC(=O)[C@H](Cc1ccc(O)cc1)NC(=O)[C@@H]1CCCN1C(=O)[C@@H]1CCCN1C(=O)[C@H](CCCCN)NC(=O)[C@H](CC(=O)O)NC(=O)[C@@H](N)C(C)C)[C@@H](C)O)C(=O)N[C@@H](Cc1ccc(O)cc1)C(=O)N[C@@H](CC(N)=O)C(=O)N[C@H](CCCNC(=N)N)C(N)=O | broth microdilution | ATCC 25922 | 18 h, 37 °C, 25% MHB2 | 8 µg/mL
CC(C)C[C@@H](NC(=O)[C@H](NC(=O)[C@@H](CCCCN)NC(=O)[C@@H](CCCCN)NC(=O)[C@@H](CC(C)C)NC(=O)[C@@H](Cc1c[nH]c2ccccc12)NC(=O)[C@@H](CCCCN)NC(=O)[C@@H](Cc1c[nH]c2ccccc12)NC(=O)[C@@H](CC(C)C)NC(=O)[C@@H](CCCCN)NC(=O)[C@@H](CCCCN)NC(=O)[C@H](N)C(C)C)C(C)C)C(N)=O | – | – | 24 h, 37 °C, Mueller-Hinton broth, human serum 10% | 4 µM
CC[C@H](C)[C@H](NC(=O)[C@@H](CCCNC(=N)N)NC(=O)[C@H](CCCNC(=N)N)NC(=O)[C@H](CC(N)=O)NC(=O)[C@H](Cc1c[nH]c2ccccc12)NC(=O)[C@H](CCCNC(=N)N)NC(=O)[C@@H]1CCCN1C(=O)[C@H](CCCNC(=N)N)NC(=O)[C@@H]1CCCN1C(=O)[C@H](CC(C)C)NC(=O)[C@H](Cc1ccc(O)cc1)NC(=O)[C@@H]1CCCN1C(=O)[C@@H]1CCCN1C(=O)[C@H](CCCCN)NC(=O)[C@H](CC(=O)O)NC(=O)[C@@H](N)C(C)C)C(=O)N[C@@H](Cc1ccc(O)cc1)C(=O)N[C@@H](CC(N)=O)C(=O)N[C@H](CCCNC(=N)N)C(N)=O | broth microdilution | BW25113 | 18 h, 37 °C, 25% MHB2 | 8 µg/mL
CCCCCCCC(=O)N[C@@H](CCN)C(=O)N[C@H](C(=O)N[C@@H](CCN)C(=O)N[C@H]1CCNC(=O)[C@H]([C@@H](C)O)NC(=O)[C@H](CCN)NC(=O)[C@H](CCN)NC(=O)[C@H](CC(C)C)NC(=O)[C@@H](Cc2ccc(Br)cc2)NC(=O)[C@H](CCN)NC1=O)[C@@H](C)O | broth microdilution | ATCC 25922, colistin-susceptible | – | < 0.125 µg/mL
